Measurements gathered from unrelated publications.
Every numbered part comes from another study and shows a few of its results, in no order.
Chain of UniProt P07949 (whole entry, unmodified, looked up): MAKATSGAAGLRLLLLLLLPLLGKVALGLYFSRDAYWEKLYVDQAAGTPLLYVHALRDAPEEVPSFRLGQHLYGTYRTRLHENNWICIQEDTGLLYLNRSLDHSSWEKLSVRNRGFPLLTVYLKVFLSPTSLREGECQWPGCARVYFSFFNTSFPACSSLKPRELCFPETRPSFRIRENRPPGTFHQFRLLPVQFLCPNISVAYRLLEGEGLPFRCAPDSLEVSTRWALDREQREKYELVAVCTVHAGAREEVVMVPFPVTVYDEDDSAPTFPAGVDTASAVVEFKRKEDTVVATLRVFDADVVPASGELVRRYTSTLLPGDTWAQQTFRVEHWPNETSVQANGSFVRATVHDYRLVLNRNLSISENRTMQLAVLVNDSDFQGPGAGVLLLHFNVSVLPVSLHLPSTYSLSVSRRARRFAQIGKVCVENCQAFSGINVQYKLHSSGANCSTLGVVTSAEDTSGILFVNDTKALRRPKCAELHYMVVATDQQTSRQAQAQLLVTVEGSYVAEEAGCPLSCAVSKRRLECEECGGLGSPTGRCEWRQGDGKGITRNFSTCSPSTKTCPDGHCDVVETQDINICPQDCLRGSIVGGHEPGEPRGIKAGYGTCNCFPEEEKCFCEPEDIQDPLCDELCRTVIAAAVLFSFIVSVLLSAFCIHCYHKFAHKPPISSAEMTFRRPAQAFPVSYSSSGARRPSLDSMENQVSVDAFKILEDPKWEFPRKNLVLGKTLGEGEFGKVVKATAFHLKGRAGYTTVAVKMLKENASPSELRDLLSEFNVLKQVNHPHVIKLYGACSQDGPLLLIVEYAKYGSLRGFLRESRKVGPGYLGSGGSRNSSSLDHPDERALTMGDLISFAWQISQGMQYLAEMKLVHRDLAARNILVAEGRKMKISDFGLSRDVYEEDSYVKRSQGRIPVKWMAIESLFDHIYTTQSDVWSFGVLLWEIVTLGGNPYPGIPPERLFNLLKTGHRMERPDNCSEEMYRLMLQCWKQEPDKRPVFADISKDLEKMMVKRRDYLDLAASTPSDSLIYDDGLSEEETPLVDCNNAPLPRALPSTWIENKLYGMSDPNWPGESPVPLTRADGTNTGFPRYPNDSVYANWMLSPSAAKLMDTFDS
Chain of UniProt Q9Y616 (whole entry, looked up): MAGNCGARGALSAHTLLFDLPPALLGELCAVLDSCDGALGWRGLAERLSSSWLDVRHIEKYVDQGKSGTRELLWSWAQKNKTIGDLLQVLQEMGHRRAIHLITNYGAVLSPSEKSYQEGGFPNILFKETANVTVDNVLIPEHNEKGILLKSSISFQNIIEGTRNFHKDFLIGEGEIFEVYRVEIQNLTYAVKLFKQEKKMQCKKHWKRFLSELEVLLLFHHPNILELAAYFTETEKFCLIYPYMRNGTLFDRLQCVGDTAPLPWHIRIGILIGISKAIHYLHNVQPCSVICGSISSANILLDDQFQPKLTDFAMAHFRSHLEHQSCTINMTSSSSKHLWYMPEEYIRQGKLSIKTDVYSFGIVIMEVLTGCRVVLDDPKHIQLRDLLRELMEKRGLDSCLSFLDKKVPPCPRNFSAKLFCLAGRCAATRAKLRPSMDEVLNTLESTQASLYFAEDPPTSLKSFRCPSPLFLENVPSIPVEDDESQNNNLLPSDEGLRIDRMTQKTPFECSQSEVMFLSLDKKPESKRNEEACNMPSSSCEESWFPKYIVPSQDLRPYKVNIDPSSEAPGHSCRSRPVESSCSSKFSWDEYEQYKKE
Chain of UniProt Q9UQB9 (whole entry, looked up): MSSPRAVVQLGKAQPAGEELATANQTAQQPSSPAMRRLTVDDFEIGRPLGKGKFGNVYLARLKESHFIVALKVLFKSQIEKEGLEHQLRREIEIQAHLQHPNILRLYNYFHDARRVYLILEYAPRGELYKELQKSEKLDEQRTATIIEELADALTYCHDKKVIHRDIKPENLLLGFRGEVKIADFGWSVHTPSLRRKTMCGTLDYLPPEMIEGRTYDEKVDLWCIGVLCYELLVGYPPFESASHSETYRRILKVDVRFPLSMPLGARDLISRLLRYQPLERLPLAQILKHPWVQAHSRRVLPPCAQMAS
Chain of UniProt Q9Y2I7 (whole entry, looked up): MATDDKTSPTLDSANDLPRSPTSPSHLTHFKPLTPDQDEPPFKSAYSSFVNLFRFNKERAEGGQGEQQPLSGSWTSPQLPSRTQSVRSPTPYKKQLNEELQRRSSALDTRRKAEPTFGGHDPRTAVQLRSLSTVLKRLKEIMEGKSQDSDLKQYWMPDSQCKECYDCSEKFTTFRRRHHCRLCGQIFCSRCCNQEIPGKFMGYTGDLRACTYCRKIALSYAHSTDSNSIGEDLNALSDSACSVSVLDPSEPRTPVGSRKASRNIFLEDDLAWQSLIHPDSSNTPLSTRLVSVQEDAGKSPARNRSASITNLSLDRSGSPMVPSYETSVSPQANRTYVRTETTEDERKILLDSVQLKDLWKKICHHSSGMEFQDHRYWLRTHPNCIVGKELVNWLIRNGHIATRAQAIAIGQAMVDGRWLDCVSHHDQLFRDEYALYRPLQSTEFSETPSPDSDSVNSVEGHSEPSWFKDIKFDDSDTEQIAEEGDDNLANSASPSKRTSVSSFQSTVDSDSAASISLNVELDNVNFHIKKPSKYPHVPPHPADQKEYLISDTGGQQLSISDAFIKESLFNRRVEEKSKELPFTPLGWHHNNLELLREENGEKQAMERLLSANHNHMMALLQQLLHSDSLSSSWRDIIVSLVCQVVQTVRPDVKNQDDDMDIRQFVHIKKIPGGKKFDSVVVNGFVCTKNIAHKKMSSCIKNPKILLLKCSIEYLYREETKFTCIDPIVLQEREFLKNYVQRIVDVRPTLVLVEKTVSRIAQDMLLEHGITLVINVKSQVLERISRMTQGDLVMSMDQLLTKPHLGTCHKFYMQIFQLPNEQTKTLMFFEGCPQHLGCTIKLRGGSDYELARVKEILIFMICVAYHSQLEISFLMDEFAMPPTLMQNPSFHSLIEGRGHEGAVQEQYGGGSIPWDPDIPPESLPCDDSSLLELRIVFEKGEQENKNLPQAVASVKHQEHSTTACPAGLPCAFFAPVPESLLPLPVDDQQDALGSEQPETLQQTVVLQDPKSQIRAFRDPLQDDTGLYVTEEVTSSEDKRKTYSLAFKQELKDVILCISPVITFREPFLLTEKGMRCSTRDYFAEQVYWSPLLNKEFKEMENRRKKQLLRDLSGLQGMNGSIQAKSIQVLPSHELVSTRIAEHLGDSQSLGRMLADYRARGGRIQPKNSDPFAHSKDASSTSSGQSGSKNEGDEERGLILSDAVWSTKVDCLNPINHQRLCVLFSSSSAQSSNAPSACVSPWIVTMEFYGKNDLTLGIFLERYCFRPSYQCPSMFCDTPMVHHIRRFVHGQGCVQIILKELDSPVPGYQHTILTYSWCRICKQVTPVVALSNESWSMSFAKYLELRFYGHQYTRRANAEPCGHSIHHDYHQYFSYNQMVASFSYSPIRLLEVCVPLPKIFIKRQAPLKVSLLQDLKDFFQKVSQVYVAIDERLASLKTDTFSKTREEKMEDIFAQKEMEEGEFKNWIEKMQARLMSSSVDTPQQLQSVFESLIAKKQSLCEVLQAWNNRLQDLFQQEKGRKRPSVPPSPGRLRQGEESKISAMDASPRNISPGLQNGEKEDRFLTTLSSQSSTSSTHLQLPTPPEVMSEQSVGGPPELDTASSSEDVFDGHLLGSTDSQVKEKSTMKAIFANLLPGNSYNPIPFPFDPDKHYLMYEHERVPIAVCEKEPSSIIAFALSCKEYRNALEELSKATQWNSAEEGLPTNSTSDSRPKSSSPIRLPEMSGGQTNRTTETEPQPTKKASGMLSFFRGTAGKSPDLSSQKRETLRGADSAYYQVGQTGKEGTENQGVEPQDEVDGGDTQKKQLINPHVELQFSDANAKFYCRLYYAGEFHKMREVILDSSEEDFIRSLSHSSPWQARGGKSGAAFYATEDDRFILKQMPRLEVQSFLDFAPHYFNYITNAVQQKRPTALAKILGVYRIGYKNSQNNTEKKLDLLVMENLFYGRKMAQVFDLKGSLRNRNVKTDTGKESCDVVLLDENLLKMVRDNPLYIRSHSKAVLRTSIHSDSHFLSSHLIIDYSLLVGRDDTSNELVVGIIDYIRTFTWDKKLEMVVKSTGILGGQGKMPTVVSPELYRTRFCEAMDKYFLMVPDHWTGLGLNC
Chain of UniProt P10721 (whole entry, looked up): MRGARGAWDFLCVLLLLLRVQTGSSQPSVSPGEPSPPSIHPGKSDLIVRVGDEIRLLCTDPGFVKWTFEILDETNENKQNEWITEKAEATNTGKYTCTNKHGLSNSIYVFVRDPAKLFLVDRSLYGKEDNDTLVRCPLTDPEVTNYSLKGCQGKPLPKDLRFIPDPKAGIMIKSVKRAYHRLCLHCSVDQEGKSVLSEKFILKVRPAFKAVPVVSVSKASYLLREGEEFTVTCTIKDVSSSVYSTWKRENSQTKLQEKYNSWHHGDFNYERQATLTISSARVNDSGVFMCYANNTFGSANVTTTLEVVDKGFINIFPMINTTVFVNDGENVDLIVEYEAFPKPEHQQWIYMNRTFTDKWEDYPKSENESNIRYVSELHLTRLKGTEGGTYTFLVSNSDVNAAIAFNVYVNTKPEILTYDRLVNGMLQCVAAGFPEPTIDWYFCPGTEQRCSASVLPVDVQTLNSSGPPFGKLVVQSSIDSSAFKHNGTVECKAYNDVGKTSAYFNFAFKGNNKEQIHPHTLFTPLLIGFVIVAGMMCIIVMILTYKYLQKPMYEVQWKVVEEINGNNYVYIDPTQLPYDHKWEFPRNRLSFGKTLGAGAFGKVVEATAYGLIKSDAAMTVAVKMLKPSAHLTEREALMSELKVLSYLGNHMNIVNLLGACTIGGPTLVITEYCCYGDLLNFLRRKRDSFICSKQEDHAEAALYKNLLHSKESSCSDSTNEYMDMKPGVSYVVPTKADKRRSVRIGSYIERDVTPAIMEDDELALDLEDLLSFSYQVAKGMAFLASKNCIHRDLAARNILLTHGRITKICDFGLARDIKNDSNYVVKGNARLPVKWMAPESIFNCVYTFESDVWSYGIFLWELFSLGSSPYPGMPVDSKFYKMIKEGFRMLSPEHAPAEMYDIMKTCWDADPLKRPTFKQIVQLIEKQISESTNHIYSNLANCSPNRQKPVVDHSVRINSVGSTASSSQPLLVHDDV

Set 1 — host: mouse; sample: microsomes or S9; tested at: 2 µM; time: 0.5 h; measurement: remaining compound
COC(=O)C1(C(=O)OC)C[C@@H](c2ccccc2)c2ccc(N(C)C)cc2[C@@H]1CC(=O)c1ccccc1: 1.46%
COC(=O)c1ccc(S(C)(=O)=O)c(O)c1Cl: 65.3%
Cc1ccc(O)c(C(=O)c2cnc(/N=C(\N)N(C)C)nc2)c1: 92%

Set 2 — technique: logD(dd/w) and ALogP; setting: JT method; measurement: lipophilic permeability efficiency
CC(C)C[C@@H]1NC(=O)[C@H](C(C)C)NC(=O)[C@@H](CC(C)C)NC(=O)[C@@H](CC(C)C)NC(=O)[C@H](C)NC(=O)[C@H](CC(C)C)NC(=O)[C@@H](CC(C)C)NC1=O: 2.93
CC(C)C[C@@H]1NC(=O)[C@H](C)NC(=O)[C@H](CC(C)C)NC(=O)[C@@H](CC(C)C)NC(=O)[C@H](CC(C)C)NC(=O)[C@@H](C)NC(=O)[C@H](CCC(=O)N2CCCC2)NC1=O: 1.69
CC(C)C[C@@H]1NC(=O)[C@H](CC(C)C)NC(=O)[C@H](CC(C)C)NC(=O)[C@H](CC(C)C)NC(=O)[C@@H](CCC(=O)N2CCCC2)NC(=O)[C@H](Cc2cscn2)NC(=O)[C@H](C)NC1=O: 2.23

Set 3 — organism: Sarcocystis neurona; observed: parasite growth; tested at: 10 µM; time: 96 h; reference: untreated; measurement: log2 fold change
COCCCOc1ccnc(C[S+]([O-])c2nc3ccccc3[nH]2)c1C (stereo not drawn): 0.44
Nc1ccn([C@@H]2O[C@H](CO)[C@@H](O)[C@@H]2O)c(=O)n1: 0.48
OCc1cc(C(O)CNCCCCCCOCCCCc2ccccc2)ccc1O (stereo not drawn): -0.45

Set 4 — technique: protein binding microarray; molecule type: double-stranded DNA, one strand shown; sample: in vitro; tested at: not given; reference: not given; direction: higher = stronger binding; measurement: E-score
Target: Histone acetyltransferase KAT6A, winged helix 1, GST fusion (KAT6A, Homo sapiens, UniProt Q92794, residues 1-85)
Setting: 8-mer, flanks averaged, mean of 2 arrays, mostly near background
Construct (chain): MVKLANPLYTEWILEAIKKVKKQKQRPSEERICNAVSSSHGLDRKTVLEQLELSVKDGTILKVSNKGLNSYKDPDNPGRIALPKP
GGAATGTA: -0.0673
ATCTGTCG: 0.118
CAAAGATC: -0.145
CTGGGGGC: -0.0947
GTCCTGAA: -0.27
CCGCCTCG: 0.279
CTATTGCC: 0.0505
ACAAGAGA: -0.225

Set 5 — Compound: O=c1nc(-c2ccccn2)sc2ccccc12; technique: competition with immobilised ligand; tested at: 1 µM; measurement: remaining binding
Receptor-type tyrosine-protein kinase FLT3, autoinhibited (FLT3, Homo sapiens, UniProt P36888); binding: 98%
Mast/stem cell growth factor receptor Kit, autoinhibited (KIT, Homo sapiens, UniProt P10721); binding: 97%
INSRR (Homo sapiens, UniProt P14616); binding: 86%
PI4KB (Homo sapiens, UniProt Q9UBF8); cell-free assay: 71%
PIKFYVE (Homo sapiens, UniProt Q9Y2I7); binding: 100%
CDKL3 (Homo sapiens, UniProt Q8IVW4); binding: 88%
FLT4 (Homo sapiens, UniProt P35916); cell-free assay: 84%
MELK (Homo sapiens, UniProt Q14680); binding: 82%
Aurora kinase C (AURKC, Homo sapiens, UniProt Q9UQB9); binding: 97%
NEK1 (Homo sapiens, UniProt Q96PY6); binding: 100%
IRAK3 (Homo sapiens, UniProt Q9Y616); binding: 82%
RIPK4 (Homo sapiens, UniProt P57078); binding: 84%
RET (Homo sapiens, UniProt P07949); binding: 89%
BMPR1A (Homo sapiens, UniProt P36894); binding: 100%
RET (Homo sapiens, UniProt P07949, M918T); binding: 81%
Non-receptor tyrosine-protein kinase TYK2, JH1 (TYK2, Homo sapiens, UniProt P29597); binding: 100%

Excerpt of the above (set 5):
PI4KB (Homo sapiens, UniProt Q9UBF8); cell-free assay: 71%
NEK1 (Homo sapiens, UniProt Q96PY6); binding: 100%
Mast/stem cell growth factor receptor Kit, autoinhibited (KIT, Homo sapiens, UniProt P10721); binding: 97%
Receptor-type tyrosine-protein kinase FLT3, autoinhibited (FLT3, Homo sapiens, UniProt P36888); binding: 98%
